Experimental data from different studies.
A part holds a random share of what one study measured. Several values in a cell are separate wells, animals, samples, runs or records. Changes are numbered by the printed parent chain.

Set 1
Cell line: mouse MPNST tumor cells
Method: high-content immunofluorescence imaging
Item: nuclear SOX9
Tested at: 10 µM
Time: 12 h
Setting: mean of 2 replicates
Reference: DMSO control
Reading: higher = more nuclear SOX9
Quantity: nuclear SOX9 intensity
SMILES = Fc1ccc(C(OCCN2CCN(CCCc3ccccc3)CC2)c2ccc(F)cc2)cc1; result = 150 % of DMSO and 132 % of DMSO
SMILES = O=c1[nH]c2ccccc2n1CCCN1CCC(n2c(=O)[nH]c3cc(Cl)ccc32)CC1; result = 104 % of DMSO
SMILES = CCP(=O)(O)CCCN; result = 102 % of DMSO
SMILES = CN(C)C(=O)Oc1cccc([N+](C)(C)C)c1; result = 101 % of DMSO
SMILES = CC(=O)Nc1cc([As](=O)(O)O)ccc1O; result = 105 % of DMSO

Set 2
Target: HLA class I histocompatibility antigen, A alpha chain, allele A*80:01 (Homo sapiens, UniProt P04439)
Read-out: peptide-MHC binding
Form: peptide
Reading: direction not given
Quantity: z-score of log IC50
Molecule = FTGEYLLRL; result = 0.38
Molecule = AEDLADHHV; result = 0.38
Molecule = FTIGNMFSL; result = 0.38
Molecule = AARISSCLK; result = 0.38
Molecule = AFDLSFFLK; result = 0.38
Molecule = AMDTHLYFE; result = 0.38
Molecule = FKYDSTKPL; result = 0.38
Molecule = ARLSSPIVL; result = 0.38

Set 3
Target: Beta-1 adrenergic receptor (ADRB1, Homo sapiens, UniProt P08588)
Sequence of UniProt P08588 (whole entry, looked up): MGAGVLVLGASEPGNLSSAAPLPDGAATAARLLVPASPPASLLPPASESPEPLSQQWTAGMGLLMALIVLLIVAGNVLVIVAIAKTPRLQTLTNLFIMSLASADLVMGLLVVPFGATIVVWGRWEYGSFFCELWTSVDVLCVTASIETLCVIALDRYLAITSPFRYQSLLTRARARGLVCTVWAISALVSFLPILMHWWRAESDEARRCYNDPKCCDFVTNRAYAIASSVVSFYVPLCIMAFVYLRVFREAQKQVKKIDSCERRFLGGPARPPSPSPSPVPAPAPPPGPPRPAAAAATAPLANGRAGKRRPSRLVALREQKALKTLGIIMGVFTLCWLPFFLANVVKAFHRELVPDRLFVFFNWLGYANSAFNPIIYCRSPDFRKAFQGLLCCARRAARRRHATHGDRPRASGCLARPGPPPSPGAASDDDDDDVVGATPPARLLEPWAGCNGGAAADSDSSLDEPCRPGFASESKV
Action: antagonist
Quantity: IC50
SMILES = NCCc1c[nH]c2ccc(O)cc12; result = ≥ 100 µM
SMILES = CN1C[C@@H](CO)C=C2c3cccc4[nH]cc(c34)C[C@@H]21; result = ≥ 100 µM
SMILES = COc1cc(CCN)ccc1O; result = ≥ 100 µM

Set 4
Target: Mu-type opioid receptor (OPRM1, Homo sapiens, UniProt P35372)
Sequence of UniProt P35372 (whole entry, looked up): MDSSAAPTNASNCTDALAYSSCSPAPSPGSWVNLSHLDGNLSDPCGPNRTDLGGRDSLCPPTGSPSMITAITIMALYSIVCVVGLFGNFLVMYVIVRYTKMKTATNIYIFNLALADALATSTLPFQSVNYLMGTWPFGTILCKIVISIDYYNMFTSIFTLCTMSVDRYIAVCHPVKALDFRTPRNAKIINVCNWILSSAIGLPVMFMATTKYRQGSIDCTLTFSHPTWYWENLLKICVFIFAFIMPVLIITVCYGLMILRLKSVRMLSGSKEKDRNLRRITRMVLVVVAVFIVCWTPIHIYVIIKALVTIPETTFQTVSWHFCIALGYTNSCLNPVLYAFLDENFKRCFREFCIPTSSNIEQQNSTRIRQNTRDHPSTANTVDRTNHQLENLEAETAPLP
Read-out: ligand displacement
Tested at: 10 µM
Quantity: inhibition
Structure (SMILES) = O=C1NC(c2ccccn2)Sc2ccccc21 (stereo not drawn); result = 6.47%
Structure (SMILES) = Cn1nc(C(=O)NCc2ccc(C(=O)O)cc2)cc1-c1ccc2[nH]ccc2c1; result = 2.9%
Structure (SMILES) = CN(C)c1ncnc(-c2ccc3nc(Nc4cc(CN5CCN(C(=O)CC(F)(F)F)CC5)ccn4)[nH]c3c2)c1Cl; result = 14.1%
Structure (SMILES) = CCOc1ccc(S(=O)(=O)Nc2ccc(Cl)cc2C#Cc2cnc(C(=O)O)cc2OC)c2ncccc12; result = -10.6%
Structure (SMILES) = COc1cccc(NC(=O)c2nc3scc(CN(C)Cc4ccccc4)c3c(=O)[nH]2)c1; result = 2.84%
Structure (SMILES) = CO[C@H]1CC[C@H](CNc2ccc(S(=O)(=O)NC(=O)c3ccc(N4CCN(CC5=C(c6ccc(Cl)cc6)CC(C)(C)CC5)CC4)cc3Oc3cnc4[nH]ccc4c3)cc2[N+](=O)[O-])CC1; result = 10.2%
Structure (SMILES) = CC[C@H](CC(=O)O)n1c(=O)c2ncccc2n(Cc2cn(C)c3cc(C)cc(C)c23)c1=O; result = 2.82%
Structure (SMILES) = COCCOc1nc(-c2ccc(Cl)nc2)nc2c1CN(C(=O)c1ncn3ccccc13)CC2; result = -0.32%
Structure (SMILES) = CN(C)CC#Cc1ccc(OCCCc2sc(N3CCc4cccc(C(=O)Nc5nc6ccccc6s5)c4C3)nc2C(=O)O)c(F)c1; result = 15.4%
Structure (SMILES) = Cn1cc(Cl)c2c(Oc3c(F)cc(Nc4cc(Cl)nc(N)n4)cc3F)ccnc21; result = -9.98%
Structure (SMILES) = C[C@@H](c1cccc(C#N)c1)n1cc(Cl)cc(C(N)=O)c1=N; result = -6.83%
Structure (SMILES) = CCC(=NO)C(C)=Cc1ccc(F)c(C)c1; result = -1.52%
Structure (SMILES) = CCC(F)(F)c1cc(N2CCC(S(C)(=O)=O)CC2)nc2sc(C(N)=O)c(N)c12; result = 5.18%
Structure (SMILES) = O=C(N[C@H]1CCCCC/C=C\C2C[C@@]2(C(=O)O)NC(=O)[C@@H]2C[C@@H](Oc3ccncc3)CN2C1=O)OC1CCCC1 (stereo partly drawn); result = -8.64%
Structure (SMILES) = Nc1cnc(N2CCc3cc(S(=O)(=O)Nc4c(F)cc(Cl)cc4F)cc(N4CCCC4=O)c32)nc1; result = -1.31%
Structure (SMILES) = C[C@H](c1ccnc(Nc2nc3ccc(-c4cc(N(C)C)ncn4)cc3[nH]2)c1)N1CCN(C(=O)CC(F)(F)F)CC1; result = 26%
Structure (SMILES) = CNC(=O)Nc1ccc2c(c1)CC[C@]21OC(=O)N(CC(=O)N(Cc2ccc(F)cc2)[C@@H](C)C(F)(F)F)C1=O; result = -13.3%
Structure (SMILES) = Cc1ccccc1Oc1cc(-n2c(=O)cc(C(F)(F)F)[nH]c2=O)c2ccccc2c1Cl; result = 20.9%
Structure (SMILES) = O=C(NS(=O)(=O)c1ccc(NCC2CCOCC2)c([N+](=O)[O-])c1)c1ccc(N2CCN(Cc3ccc(C(F)(F)F)cc3-c3ccc(Cl)cc3)CC2)cc1Oc1cnc2[nH]ccc2c1; result = 10.7%
Structure (SMILES) = CC(=O)Nc1ncc(CN2CCC[C@H](Cc3cc(C)nc(C)c3)C2)s1; result = 12.8%
Structure (SMILES) = c1ccc(C2CCN(c3cnc4c(N5CCOCC5)nccn34)CC2)cc1; result = 19.6%
Structure (SMILES) = CN(C)C(=O)c1sc2nc(N3CCC(S(C)(=O)=O)CC3)cc(C(F)(F)F)c2c1N; result = 22.4%
Structure (SMILES) = O=c1nc(-c2ccccn2)sc2ccccc12; result = 3.52%
Structure (SMILES) = CN1CCN(c2cnc3c(C4CCN(C(=O)c5ccc(OC(F)(F)F)cc5N)CC4)ncnc3c2)CC1; result = 13.2%
Structure (SMILES) = CCc1ccccc1C(=O)Nc1n[nH]c2c(C)c(F)c(C3C(C#N)=C(C)N(C)C(C)=C3C#N)cc12; result = 30.5%

Set 5
Target: Calcium/calmodulin-dependent protein kinase type II subunit alpha (CAMK2A, Homo sapiens, UniProt Q9UQM7)
Sequence of UniProt Q9UQM7 (whole entry, looked up): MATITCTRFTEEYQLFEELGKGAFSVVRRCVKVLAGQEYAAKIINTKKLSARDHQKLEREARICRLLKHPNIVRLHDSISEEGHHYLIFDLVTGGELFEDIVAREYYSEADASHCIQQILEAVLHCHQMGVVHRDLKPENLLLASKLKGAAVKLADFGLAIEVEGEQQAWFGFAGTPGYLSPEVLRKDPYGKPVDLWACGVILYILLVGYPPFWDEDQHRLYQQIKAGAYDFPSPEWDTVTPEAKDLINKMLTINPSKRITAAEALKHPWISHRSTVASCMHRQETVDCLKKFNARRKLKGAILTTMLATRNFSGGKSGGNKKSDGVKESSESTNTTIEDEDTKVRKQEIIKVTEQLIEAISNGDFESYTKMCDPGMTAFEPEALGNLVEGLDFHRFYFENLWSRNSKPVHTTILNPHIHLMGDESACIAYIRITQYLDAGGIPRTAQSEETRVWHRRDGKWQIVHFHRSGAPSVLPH
Read-out: enzyme activity
Action: inhibitor
Tested at: 10 µM
Quantity: inhibition
SMILES = CCCCCc1cc(O)cc(O)c1; result = -39%
SMILES = C[C@H]1CCC/C=C/[C@@H]2C[C@H](O)C[C@H]2[C@H](O)/C=C/C(=O)O1; result = 18%
SMILES = C=C1[C@@H]2CC[C@H]3[C@]4(C)C[C@H](O[C@@H]5O[C@H](CO)[C@@H](OS(=O)(=O)O)[C@H](OS(=O)(=O)O)[C@H]5OC(=O)CC(C)C)CC(C(=O)O)(C(=O)O)[C@H]4CC[C@]3(C2)[C@H]1O; result = -7%

Set 6
Organism: Sarcocystis neurona
Read-out: parasite growth
Tested at: 10 µM
Setting: second screen
Reference: untreated
Quantity: log2 fold change
Compound = CNC(=O)Oc1ccc2c(c1)[C@]1(C)CCN(C)[C@@H]1N2C.CNC(=O)Oc1ccc2c(c1)[C@]1(C)CCN(C)[C@@H]1N2C.O=S(=O)(O)O; result = 0.69
Compound = Cl.Oc1cc2c(cc1O)[C@H]1c3ccccc3CN[C@@H]1CC2; result = 0.75
Compound = C[C@]12CC[C@H]3[C@@H](CCC4=CC(=O)CC[C@@H]43)[C@@H]1CC[C@@H]2O; result = -0.00721

Set 7
Target: CCNF, cyclin fold, Cln2 fusion (human)
Method: yeast growth competition, sequencing
Matrix: yeast
Setting: strong parent motif
Reference: not given
Reading: higher = stronger binding
Quantity: normalised enrichment score
Starting sequence: viral docking peptide; YKVKRRLVFGADD
Variant = YKVKRRLVFHADD [G10H]; result = 8.15
Variant = YKVKRRLVGGADD [F9G]; result = 0.797
Variant = YKVKRRLVFGFDD [A11F]; result = 9.13
Variant = YKVKRRLVFGKDD [A11K]; result = 8.72
Variant = YKVKRRLVFCADD [G10C]; result = 8.79
Variant = YKAKRRLVFGADD [V3A]; result = 8.55
Variant = YKVKRRCVFGADD [L7C]; result = 1.79
Variant = YKVKRRLVFGMDD [A11M]; result = 8.94

Mixed results
Species: human
Matrix: microsomes or S9
Tested at: 2 µM
Time: 0.5 h
SMILES = COc1cc(/C=C2\C(=O)N=C(O)N=C2O)ccc1OCc1ccc(Cl)cc1; remaining compound = 94.4%
SMILES = CC(=O)Nc1cccc(C2(C)C(=O)N(C)C(=O)N(C)C2=O)c1; remaining compound = > 99%

Repeated from above (mixed results):
SMILES = COc1cc(/C=C2\C(=O)N=C(O)N=C2O)ccc1OCc1ccc(Cl)cc1; remaining compound = 94.4%
SMILES = CC(=O)Nc1cccc(C2(C)C(=O)N(C)C(=O)N(C)C2=O)c1; remaining compound = > 99%
